# Results from different studies.
# “And” joins repeats or separate records; there may be more than shown. ± marks the error that the study gave.
# ampC: Beta-lactamase (ampC, Escherichia coli K-12, UniProt P00811)
# Chain of UniProt P00811 (whole entry, looked up): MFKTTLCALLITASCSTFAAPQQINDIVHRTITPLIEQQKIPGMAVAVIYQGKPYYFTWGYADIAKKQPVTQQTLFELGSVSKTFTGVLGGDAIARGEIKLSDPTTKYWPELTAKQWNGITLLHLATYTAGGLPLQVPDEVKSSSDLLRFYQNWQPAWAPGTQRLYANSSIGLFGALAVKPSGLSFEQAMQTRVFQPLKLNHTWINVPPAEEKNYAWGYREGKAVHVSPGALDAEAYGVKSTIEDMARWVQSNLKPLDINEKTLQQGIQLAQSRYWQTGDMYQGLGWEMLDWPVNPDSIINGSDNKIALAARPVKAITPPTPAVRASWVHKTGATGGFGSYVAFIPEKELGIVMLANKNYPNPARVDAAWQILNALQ
# Oprk1: Kappa-type opioid receptor (Oprk1, Rattus norvegicus, UniProt P34975)
# Chain of UniProt P34975 (whole entry, looked up): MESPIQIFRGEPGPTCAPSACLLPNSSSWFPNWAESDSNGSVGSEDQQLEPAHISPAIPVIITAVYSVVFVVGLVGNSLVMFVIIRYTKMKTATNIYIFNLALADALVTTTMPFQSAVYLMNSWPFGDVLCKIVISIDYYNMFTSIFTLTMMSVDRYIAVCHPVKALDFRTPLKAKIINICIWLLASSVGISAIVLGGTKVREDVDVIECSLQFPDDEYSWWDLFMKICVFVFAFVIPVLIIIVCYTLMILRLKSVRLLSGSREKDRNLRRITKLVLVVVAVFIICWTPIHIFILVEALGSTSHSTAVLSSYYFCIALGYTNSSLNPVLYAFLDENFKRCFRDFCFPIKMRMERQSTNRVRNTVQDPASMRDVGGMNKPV
# Chain of UniProt P03372 (whole entry, looked up): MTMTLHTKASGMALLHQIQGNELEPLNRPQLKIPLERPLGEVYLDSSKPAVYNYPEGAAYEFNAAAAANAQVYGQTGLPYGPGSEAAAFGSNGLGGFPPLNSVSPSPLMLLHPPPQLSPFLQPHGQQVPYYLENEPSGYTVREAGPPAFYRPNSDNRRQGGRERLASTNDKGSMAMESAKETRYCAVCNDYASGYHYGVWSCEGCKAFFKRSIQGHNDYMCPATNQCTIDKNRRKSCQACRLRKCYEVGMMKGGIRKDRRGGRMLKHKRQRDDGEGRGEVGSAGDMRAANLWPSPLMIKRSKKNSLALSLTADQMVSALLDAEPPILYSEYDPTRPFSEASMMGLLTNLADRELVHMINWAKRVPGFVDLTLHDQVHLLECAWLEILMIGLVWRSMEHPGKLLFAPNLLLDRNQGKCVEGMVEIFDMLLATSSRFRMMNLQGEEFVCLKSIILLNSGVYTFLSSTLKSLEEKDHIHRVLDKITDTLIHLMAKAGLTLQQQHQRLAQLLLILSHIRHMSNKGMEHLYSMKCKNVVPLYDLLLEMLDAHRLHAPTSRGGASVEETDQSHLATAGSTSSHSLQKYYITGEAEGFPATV
# Chain of UniProt P56817 (whole entry, looked up): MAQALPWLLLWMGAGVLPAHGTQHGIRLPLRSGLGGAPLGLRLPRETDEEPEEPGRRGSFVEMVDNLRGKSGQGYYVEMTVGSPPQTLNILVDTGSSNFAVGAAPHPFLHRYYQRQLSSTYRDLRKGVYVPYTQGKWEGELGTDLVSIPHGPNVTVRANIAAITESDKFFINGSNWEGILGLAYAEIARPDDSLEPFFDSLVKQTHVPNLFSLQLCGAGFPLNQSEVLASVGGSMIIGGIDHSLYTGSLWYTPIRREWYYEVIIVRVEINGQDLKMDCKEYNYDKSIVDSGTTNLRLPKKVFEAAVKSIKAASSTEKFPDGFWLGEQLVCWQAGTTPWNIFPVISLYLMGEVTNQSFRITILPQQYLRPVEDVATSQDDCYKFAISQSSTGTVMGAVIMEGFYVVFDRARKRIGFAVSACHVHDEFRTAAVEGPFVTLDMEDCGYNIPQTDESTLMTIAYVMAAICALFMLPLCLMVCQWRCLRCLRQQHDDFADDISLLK
# Chain of UniProt P0C0V0 (whole entry, looked up): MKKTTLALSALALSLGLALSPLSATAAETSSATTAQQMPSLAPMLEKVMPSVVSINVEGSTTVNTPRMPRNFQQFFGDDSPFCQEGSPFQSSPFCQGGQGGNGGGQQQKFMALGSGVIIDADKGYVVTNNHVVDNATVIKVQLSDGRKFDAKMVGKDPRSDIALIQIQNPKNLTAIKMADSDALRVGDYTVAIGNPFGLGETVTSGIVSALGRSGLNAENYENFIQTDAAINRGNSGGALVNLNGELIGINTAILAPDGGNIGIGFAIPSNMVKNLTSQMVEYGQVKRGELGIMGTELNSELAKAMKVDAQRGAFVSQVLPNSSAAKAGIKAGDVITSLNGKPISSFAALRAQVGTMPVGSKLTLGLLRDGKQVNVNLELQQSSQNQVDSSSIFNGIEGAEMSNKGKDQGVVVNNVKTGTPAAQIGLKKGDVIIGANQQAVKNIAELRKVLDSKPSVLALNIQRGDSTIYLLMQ
# Chain of UniProt P11229 (whole entry, looked up): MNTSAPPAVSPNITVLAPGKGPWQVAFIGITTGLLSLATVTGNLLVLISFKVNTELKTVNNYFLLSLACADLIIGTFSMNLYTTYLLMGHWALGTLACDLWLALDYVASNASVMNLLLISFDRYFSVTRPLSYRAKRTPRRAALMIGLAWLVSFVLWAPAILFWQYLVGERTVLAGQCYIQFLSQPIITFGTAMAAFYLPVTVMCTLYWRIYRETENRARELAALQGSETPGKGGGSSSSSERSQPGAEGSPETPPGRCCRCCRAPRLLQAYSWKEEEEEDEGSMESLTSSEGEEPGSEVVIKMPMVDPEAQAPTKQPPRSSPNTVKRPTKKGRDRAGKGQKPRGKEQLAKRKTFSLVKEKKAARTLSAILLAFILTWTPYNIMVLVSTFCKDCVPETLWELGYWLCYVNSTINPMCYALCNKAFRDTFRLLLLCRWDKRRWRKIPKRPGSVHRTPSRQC
# Chain of UniProt P40763 (whole entry, looked up): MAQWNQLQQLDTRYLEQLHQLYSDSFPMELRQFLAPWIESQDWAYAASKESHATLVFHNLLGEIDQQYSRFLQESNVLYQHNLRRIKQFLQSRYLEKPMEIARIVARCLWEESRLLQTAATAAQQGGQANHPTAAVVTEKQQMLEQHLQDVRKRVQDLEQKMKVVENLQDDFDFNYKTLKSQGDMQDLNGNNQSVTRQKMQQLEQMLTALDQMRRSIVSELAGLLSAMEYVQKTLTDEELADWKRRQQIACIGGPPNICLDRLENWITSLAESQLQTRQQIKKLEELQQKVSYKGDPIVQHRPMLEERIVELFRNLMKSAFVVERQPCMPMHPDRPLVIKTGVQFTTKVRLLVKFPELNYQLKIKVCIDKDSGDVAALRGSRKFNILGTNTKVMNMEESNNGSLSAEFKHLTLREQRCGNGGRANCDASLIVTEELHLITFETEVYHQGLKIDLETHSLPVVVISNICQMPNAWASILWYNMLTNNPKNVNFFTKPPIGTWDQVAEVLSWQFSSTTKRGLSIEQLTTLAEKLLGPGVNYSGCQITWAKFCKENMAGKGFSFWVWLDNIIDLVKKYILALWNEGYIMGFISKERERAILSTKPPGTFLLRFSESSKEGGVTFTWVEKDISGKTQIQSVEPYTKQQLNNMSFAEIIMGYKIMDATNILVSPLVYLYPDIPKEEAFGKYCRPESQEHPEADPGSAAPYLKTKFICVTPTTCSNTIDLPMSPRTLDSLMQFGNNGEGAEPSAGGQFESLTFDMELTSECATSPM
# Chain of UniProt Q04828 (whole entry, looked up): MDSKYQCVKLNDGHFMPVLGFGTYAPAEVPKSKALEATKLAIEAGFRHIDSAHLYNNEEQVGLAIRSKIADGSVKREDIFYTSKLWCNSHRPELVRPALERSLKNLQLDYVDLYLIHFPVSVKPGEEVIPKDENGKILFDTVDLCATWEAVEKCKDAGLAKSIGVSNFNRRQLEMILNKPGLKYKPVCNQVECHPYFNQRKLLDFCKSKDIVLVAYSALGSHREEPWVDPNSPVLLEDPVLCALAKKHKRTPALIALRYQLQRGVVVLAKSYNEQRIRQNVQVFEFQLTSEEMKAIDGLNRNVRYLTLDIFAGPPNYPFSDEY
# Chain of UniProt P10619 (whole entry, looked up): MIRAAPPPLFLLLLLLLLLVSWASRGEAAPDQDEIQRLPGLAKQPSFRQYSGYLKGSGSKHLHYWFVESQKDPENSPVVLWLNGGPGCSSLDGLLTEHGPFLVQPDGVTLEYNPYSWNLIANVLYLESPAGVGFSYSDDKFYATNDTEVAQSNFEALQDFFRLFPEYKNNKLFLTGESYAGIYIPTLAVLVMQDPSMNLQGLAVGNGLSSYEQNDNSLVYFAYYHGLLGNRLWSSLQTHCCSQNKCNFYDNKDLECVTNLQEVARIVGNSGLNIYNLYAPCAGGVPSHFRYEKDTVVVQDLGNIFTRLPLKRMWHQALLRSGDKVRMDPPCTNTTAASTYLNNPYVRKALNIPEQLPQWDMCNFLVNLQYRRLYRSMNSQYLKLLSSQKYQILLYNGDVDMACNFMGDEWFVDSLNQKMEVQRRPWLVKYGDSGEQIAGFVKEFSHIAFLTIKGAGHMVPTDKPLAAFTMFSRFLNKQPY
SMILES,tested on,test,system,conditions,how to read,quantity,value
CCCCCCCCCCCCCCCc1ccc(C(F)P(=O)(O)O)cc1 (racemic),"Autotaxin (ENPP2, Homo sapiens, UniProt Q13822)",inhibitor,,"10 µM, 2 h, added: FS-3 1 µM",reference: control,remaining activity,42.3%
O=C(CN1CCN(c2cc3c(cc2F)c(=O)c(C(=O)O)cn3C2CC2)CC1)Nc1ccc(Cl)cc1,"Tubulin beta chain (Sus scrofa, UniProt P02554)",fluorescence,,3 µM,,polymerization rate,no effect
CSCC[C@H](NC(=O)[C@H](CCCNC(=N)N)NC(=O)[C@H](CO)NC(=O)[C@@H](NC(=O)[C@H](CC(=O)O)NC(=O)[C@H](CC(=O)O)NC(=O)CCCCCNC(=O)c1ccc2c(c1)C(=O)OC21c2ccc(O)cc2Oc2cc(O)ccc21)[C@@H](C)O)C(=O)N[C@@H](CCC(=O)O)C(=O)N[C@@H](CCCCN)C(=O)N[C@H](C(=O)N[C@@H](CC(=O)O)C(=O)O)C(C)C,"DnaJ homolog subfamily C member 7 (Homo sapiens, UniProt Q99615)",fluorescence polarization,,pH 7.4,reference: wild-type tracer,affinity decrease,≥ 3 fold
CC(=O)N[C@H]1[C@@H](OP(=O)(O)OP(=O)(O)OC/C=C(/C)CC/C=C(/C)CC/C=C(/C)CC/C=C(/C)CC/C=C(/C)CC/C=C(/C)CC/C=C(/C)CC/C=C(/C)CC/C=C(\C)CC/C=C(\C)CCC=C(C)C)O[C@H](CO)[C@@H](O)[C@@H]1O[C@H](C)C(=O)N[C@@H](C)C(=O)N[C@H](CCC(=O)N[C@@H](CCCCNC(=O)OCCCCCCNC(=S)Nc1ccc(NS(=O)(=O)c2cccc3c(N(C)C)cccc23)cc1)C(=O)N[C@H](C)C(=O)N[C@H](C)C(=O)O)C(=O)O,"UDP-N-acetylglucosamine--N-acetylmuramyl-(pentapeptide) pyrophosphoryl-undecaprenol N-acetylglucosamine transferase (murG, Mycolicibacterium smegmatis, UniProt A0R016)",substrate,,added: UDP-GlcNAc 46.9 µM,,Km,13 ± 3 µM
Cc1ccc(Cn2cc(C(=O)N[C@H]3CCCC[C@@H]3O)c3c(F)cc(F)cc32)cn1,"CHRM1 (Homo sapiens, UniProt P11229)","calcium mobilization, positive allosteric modulator",CHO,added: acetylcholine EC20,reference: acetylcholine maximum,maximal response,83 ± 6%
O=P1(O)OC[C@H]2O[C@@H](n3cnc4cncnc43)[C@H](O)[C@@H]2OP(=O)(O)OC[C@H]2O[C@@H](n3cnc4cncnc43)[C@H](O)[C@@H]2O1,ydaO riboswitch wild type (Bacillus subtilis),competition gel-shift,,concentration not given,"reference: c-di-AMP, higher = weaker binding",binding affinity fold loss,5300
COc1ccc(C[C@@H](NC(=O)Cc2ccccc2)C(=O)N[C@@H](Cc2ccccc2)C(=O)N[C@@H](CCC(N)=O)C(=O)N[C@@H](CC(N)=O)C(=O)N[C@@H](CCCNC(=N)N)C(=O)N2CCC[C@H]2C(=O)N[C@@H](CCCNC(=N)N)C(=O)N[C@@H](Cc2ccc(O)c(I)c2)C(N)=O)cc1,"Vasopressin V1a receptor (Mesocricetus auratus, UniProt A0ABM2Y7A2)",saturation binding,hamster brain sections,,,Bmax,5230 DPM/0.04 mg
"COC(=O)C1C(OC(c2ccc(Cl)cc2)c2ccc(Cl)cc2)CC2CCC1N2C (single isomer, unassigned)",rat central benzodiazepine site,"binding, radioligand displacement",,"inactive if below 75% at 10000 nM, added: [3H]flunitrazepam",,Ki,inactive
CCN(CC)CCOc1ccc(-c2nnn(Cc3ccc(OC)cc3)c2N)cc1,"TGF-beta receptor type-1, with Smad3 (TGFBR1, Homo sapiens, UniProt P36897)","TGFBR1-SMAD3 interaction, pull-down",,10 µM,,binding,no effect
C[C@H](CCC(=O)NCC(=O)O)[C@H]1CC[C@H]2[C@@H]3C(=O)C[C@H]4C[C@H](O)CC[C@]4(C)[C@H]3CC[C@]12C,"SLC10A2 (Homo sapiens, UniProt Q12908)",substrate,SLC10A2-MDCK cells,added: with vs without sodium,reference: taurocholate Jmax,normalised Jmax,0.8
O=C(CCS(=O)O)c1ccccc1,ampC,,,,,ligand efficiency,0.43
O=C(/C=C/c1ccc(Cl)cc1)c1cc2ccccc2oc1=O,"Beta-secretase 1 (BACE1, Homo sapiens, UniProt P56817)","enzyme activity, inhibitor, fluorescence",,10 µM,,remaining activity,78.1%
O=C(O)/C=C/c1ccc(O)cc1,alpha-amylase,"enzyme activity, DNS",,125 µg/mL,,inhibition,59.2 ± 2.5%
COc1cc(C=O)ccc1OCc1cccc(CO)n1,"Hemoglobin subunit alpha, with beta chain (HBA1, Homo sapiens, UniProt P69905)","binding, cation-exchange HPLC-UV/Vis",,37 °C,,association rate constant kon,0.18 mM⁻¹ h⁻¹
CCN(Cc1ccccc1)C(=O)CCc1nc(CN2CCN(C(=O)Cc3ccc(OC)c(OC)c3)CC2)no1,"Sodium channel protein type 11 subunit alpha (Scn11a, Rattus norvegicus, UniProt O88457)","sodium current, whole-cell patch clamp",rat DRG neurons,3 µM,,inactivation V1/2,-97.3 ± 11.6 mV
CN1C(=O)[C@H](CCC(=O)O)NC(=O)[C@H](Cc2ccc(O)cc2)NC(=O)[C@H](CCCNC(=N)N)NC(=O)[C@@H](Cc2ccc(O)cc2)NC(=O)CSC[C@@H](C(=O)N2CCC[C@H]2C(=O)N[C@@H](CCCCN)C(=O)N[C@@H](CS)C(N)=O)NC(=O)[C@H](CCC(=O)O)NC(=O)[C@H](Cc2ccc(O)cc2)N(C)C(=O)[C@H](CCCCN)NC(=O)[C@H](Cc2ccc(O)cc2)NC(=O)[C@@H]1Cc1ccc(O)cc1,"2,3-bisphosphoglycerate-independent phosphoglycerate mutase (gpmI, Staphylococcus aureus, UniProt Q6GIL5)","thermal stability, thermal shift",,,,ΔTm,3 °C
C[C@]1(COC(=O)c2ccc(O)c(O)c2)[C@H](C(=O)O)N2C(=O)/C(=C/c3ccccn3)[C@H]2S1(=O)=O,"OXA-48 (Klebsiella pneumoniae, UniProt Q6XEC0)","enzyme activity, inhibitor, absorbance",,,,kinact,0.045 s⁻¹
CC(C)OC(=O)[C@H](C)NP(=S)(Oc1ccccc1)c1ccccc1 (some centres unmarked),"CTSA (Homo sapiens, UniProt P10619)","substrate, fluorescent probe DNS-N3",,"5 µM, pH 7.4, 37 °C, added: enzyme 250 ng/mL",,rate constant,0.31 h⁻¹
CC(=O)NCC(=O)N(C)[C@@H](Cc1ccccc1)C(=O)N[C@@H](Cc1ccccc1)C(=O)N[C@@H](Cc1ccccc1)C(=O)N[C@@H](CCCNC(=N)N)C(=O)N[C@@H](CC(C)C)C(=O)N[C@@H](CCCNC(=N)N)C(=O)N[C@@H](CCCNC(=N)N)C(=O)N[C@H](C)C(=O)N[C@@H](CCCNC(=N)N)C(=O)N1CCC[C@H]1C(=O)N[C@@H](CCCCN)C(N)=O,Oprk1,agonist,CHO cells,10 µM,reference: dynorphin A(1-13) amide,adenylyl cyclase activity,82 ± 17%
CN[C@](C)(C[18F])C(=O)O,A549 tumour model,,"host not given, bone","15 min, tumour-bearing",,tracer uptake,2.6 %ID/g
C[C@H](NC(=O)[C@@H]1CNC(=O)C[C@@H](NC(=O)[C@H](Cc2ccccc2)NC(=O)CNC(=O)CNC(=O)[C@H](Cc2ccc(O)cc2)NCc2ccccc2)C(=O)N[C@@H](CCCNC(=N)N)C(=O)N[C@@H](CCCNC(=N)N)C(=O)N1)C(=O)N1CCC[C@H]1C(=O)N[C@@H](CCCCN)C(N)=O,Oprk1,binding,,,reference: zyklophin,affinity fold decrease,≤ 2 fold
Clc1ccc2c(c1)N=C(N1CCNCC1)c1ccccc1N2,"CHRM3 (Homo sapiens, UniProt P20309, A239G/Y149C)","calcium signal, agonist, FLIPR",,,reference: clozapine N-oxide,Emax,95%
C[C@]12CC[C@@H]3c4ccc(O)c(Cl)c4CC[C@H]3[C@@H]1CCC2=O,"AKR1C1 (Homo sapiens, UniProt Q04828)","enzyme activity, inhibitor, absorbance",,"100 µM, pH 9",,inhibition,80%
C=C(C)C(=O)Oc1ccc(C(C)(C)c2ccc(OC(=O)C(=C)C)cc2)cc1,"Estrogen receptor (ESR1, Homo sapiens, UniProt P03372)",reporter gene,,added: estradiol at EC40,,concentration enhancing estrogenic effect,5 µM and 10 µM
OB(O)c1cnn(-c2cccc(Cl)c2)c1,ampC,,,,,ligand efficiency,0.66
CC12CCC(C(=O)O)(OC1=O)C2(C)C (centres unmarked),ampC,,,,,ligand efficiency,0.24
CC[C@H](C)[C@H](NC(=O)[C@H](CCC(N)=O)NC(=O)[C@H](CC(C)C)NC(=O)[C@@H](NC(=O)CNC(=O)[C@H](Cc1ccc(O)cc1)NC(=O)[C@H](CC(=O)O)NC(=O)[C@@H](NC(=O)[C@H](CO)NC(=O)CNC(=O)[C@H](CC(=O)O)NC(=O)[C@@H](NC(=O)[C@H](CC(N)=O)NC(=O)[C@H](CCCNC(=N)N)NC(=O)[C@H](CC(N)=O)NC(=O)[C@@H](NC(=O)[C@H](C)NC(=O)[C@H](CCC(N)=O)NC(=O)[C@@H](NC(=O)[C@H](CC(N)=O)NC(=O)[C@H](Cc1ccccc1)NC(=O)[C@H](CC(N)=O)NC(=O)[C@H](CO)NC(=O)[C@H](CCC(=O)O)NC(=O)[C@H](Cc1ccccc1)NC(=O)[C@H](CCCCN)NC(=O)[C@H](C)NC(=O)[C@H](C)NC(=O)[C@H](CO)NC(=O)[C@@H](NC(=O)[C@H](Cc1c[nH]c2ccccc12)NC(=O)[C@H](CC(N)=O)NC(=O)CNC(=O)[C@H](CC(C)C)NC(=O)[C@H](CO)NC(=O)[C@H](Cc1ccc(O)cc1)NC(=O)CNC(=O)[C@H](CCCNC(=N)N)NC(=O)[C@H](Cc1ccc(O)cc1)NC(=O)[C@H](CC(N)=O)NC(=O)[C@@H](N)CC(=O)O)C(C)C)[C@@H](C)O)[C@@H](C)O)[C@@H](C)O)[C@@H](C)O)[C@@H](C)CC)C(=O)O,"Periplasmic serine endoprotease DegP (degP, Escherichia coli, UniProt P0C0V0)","reporter cleavage, activator",,"added: protease 1 µM, reporter 100 µM",,concentration for maximal activation,2 to 5 µM
c1ccc(Nc2c3c(nc4ccccc24)CCCC3)cc1,"ache (Electrophorus electricus, UniProt O42275)","enzyme activity, inhibitor, Ellman",,50 µM,,inhibition,12.7%
CC(C)C[C@H](NC(=O)/C=C/c1ccc(OP(=O)(O)O)cc1)C(=O)N1CCC[C@H]1C(=O)NC/C=C/C(N)=O,"Signal transducer and activator of transcription 3, SH2 domain (STAT3, Homo sapiens, UniProt P40763)",fluorescence polarization,,concentration not given,reference: Aba analogue,affinity reduction,~2 fold
CC(C)P(=S)(NP(=S)(C(C)C)C(C)C)C(C)C,"Alpha-amylase (Bacillus subtilis, UniProt P00691)","binding, FRET",,298 K,,donor–acceptor distance,2.38 nm
COc1ccc2cc1Oc1ccc(cc1)C[C@H]1c3cc(c(OC)cc3CC[N+]1(C)Cc1ccc3ccccc3c1)Oc1c(OC)c(OC)cc3c1[C@H](C2)[N+](C)(Cc1ccc2ccccc2c1)CC3 (mixture of isomers),poly(dG)·poly(dC) 18-bp dsDNA,"DNA binding, ethidium bromide displacement","phosphate buffer, 10% DMSO","pH 7.2, 25 °C, dsDNA 10 µM, 10 mM NaCl, added: ethidium bromide 5 µM",,Stern-Volmer constant,6760 M⁻¹
OC(COCc1ccccc1Cl)CN1CC=C(c2c[nH]c3ccccc23)CC1 (racemic),"SLC6A3 (Homo sapiens, UniProt Q01959)",radioligand competition,whole cells,"concentration not given, added: [3H]WIN 35428",reference: (±)--1,binding affinity fold decrease,1.6 fold

# A few entries again:
SMILES,tested on,test,system,conditions,how to read,quantity,value
C[C@H](CCC(=O)NCC(=O)O)[C@H]1CC[C@H]2[C@@H]3C(=O)C[C@H]4C[C@H](O)CC[C@]4(C)[C@H]3CC[C@]12C,"SLC10A2 (Homo sapiens, UniProt Q12908)",substrate,SLC10A2-MDCK cells,added: with vs without sodium,reference: taurocholate Jmax,normalised Jmax,0.8
O=C(CCS(=O)O)c1ccccc1,ampC,,,,,ligand efficiency,0.43
O=C(/C=C/c1ccc(Cl)cc1)c1cc2ccccc2oc1=O,"Beta-secretase 1 (BACE1, Homo sapiens, UniProt P56817)","enzyme activity, inhibitor, fluorescence",,10 µM,,remaining activity,78.1%
O=C(O)/C=C/c1ccc(O)cc1,alpha-amylase,"enzyme activity, DNS",,125 µg/mL,,inhibition,59.2 ± 2.5%
COc1cc(C=O)ccc1OCc1cccc(CO)n1,"Hemoglobin subunit alpha, with beta chain (HBA1, Homo sapiens, UniProt P69905)","binding, cation-exchange HPLC-UV/Vis",,37 °C,,association rate constant kon,0.18 mM⁻¹ h⁻¹
